Published values of several laboratories.
Numbered parts are unrelated; each lists some results of a single study. Changes are numbered by the printed parent chain.

Set 1 — target: CCNB2, cyclin fold, Cln2 fusion (human); method: yeast growth competition, sequencing; sample: yeast; notes: weak parent motif; relative to: not given; reading: higher = stronger binding
Starting sequence: CDKN1A docking peptide (human); SKACRRLFGPVDS; partner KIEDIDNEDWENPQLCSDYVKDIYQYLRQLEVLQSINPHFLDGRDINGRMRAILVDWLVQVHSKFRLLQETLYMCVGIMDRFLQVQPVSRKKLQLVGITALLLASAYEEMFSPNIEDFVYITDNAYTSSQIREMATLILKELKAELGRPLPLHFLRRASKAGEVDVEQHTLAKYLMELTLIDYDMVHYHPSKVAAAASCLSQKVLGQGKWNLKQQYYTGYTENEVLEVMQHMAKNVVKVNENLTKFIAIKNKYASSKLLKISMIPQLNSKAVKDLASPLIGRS
Substitution	normalised enrichment score
SKACRREFGPVDS [L7E]	-0.032
SIACRRLFGPVDS [K2I]	0.289
SKACRRLFGPCDS [V11C]	0.448
SKACRRLLGPVDS [F8L]	-0.265
SKACRRLFGPVLS [D12L]	0.0722
SKACRRLHGPVDS [F8H]	0.369
SKACRRLFGLVDS [P10L]	-0.125
SKGCRRLFGPVDS [A3G]	0.358
SKACMRLFGPVDS [R5M]	-0.119
SKACRRLFNPVDS [G9N]	0.135
SKACRRLYGPVDS [F8Y]	0.0347
SKACRRLFWPVDS [G9W]	0.585
SKFCRRLFGPVDS [A3F]	0.0887

Set 2 — target: UBE2U UBC core domain (UniProt Q5VVX9); method: yeast two-hybrid; sample: yeast; notes: mostly zero background; relative to: not given; reading: higher = stronger interaction
UniProt Q5VVX9, sequence (whole entry, looked up): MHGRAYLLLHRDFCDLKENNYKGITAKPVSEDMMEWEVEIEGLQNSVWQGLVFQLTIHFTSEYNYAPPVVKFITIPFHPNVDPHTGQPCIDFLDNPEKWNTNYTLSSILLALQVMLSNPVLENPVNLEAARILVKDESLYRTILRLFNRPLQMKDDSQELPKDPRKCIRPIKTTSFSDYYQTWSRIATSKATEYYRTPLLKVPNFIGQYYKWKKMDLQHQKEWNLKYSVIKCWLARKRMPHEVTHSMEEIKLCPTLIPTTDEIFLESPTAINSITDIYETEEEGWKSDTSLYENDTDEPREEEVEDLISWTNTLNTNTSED
B1: RNF17 RING domain (UniProt Q9BXT8); chain SQPWGAAEIQCTRCGRRVSRSSGHHCELQCGHAFCELCLLMTEECTTIICPDCEVATAVNTRQR
B2: RNF10 RING domain (UniProt Q8N5U6); chain VRICSHEVPSCPICLYPPTAAKITRCGHIFCWACILHYLSLSEKTWSKCPICYSSVHKKDLKS
B3: TRIM34 RING domain (UniProt Q9BYJ4); chain ILLNVQEEVTCPICLELLTEPLSLDCGHSLCRACITVSNKEAVTSMGGKSSCPVCGISYSFEHLQA
B4: RNF7 RING domain (UniProt Q9UBF6); chain AICRVQVMDACLRCQAENKQEDCVVVWGECNHSFHNCCMSLWVKQNNRCPLCQQDWVVQRIGK
B5: TRIM28 RING domain (UniProt Q13263); chain GAEALELLEHCGVCRERLRPEREPRLLPCLHSACSACLGPAAPAAANSSGDGGAAGDGTVVDCPVCKQQCFSKDIVE
B6: TRIM74 RING domain (UniProt Q86UV6); chain SLLELEDWLQCPICLEVFKESLMLQCGHSYCKGCLVSLSYHLDTKVRCPMCWQVVDGSSSLP
B7: TRIM2 RING domain (UniProt Q9C040); chain VRQIDKQFLICSICLERYKNPKVLPCLHTFCERCLQNYIPAHSLTLSCPVCRQTSILPEKGV
Sequence	lacZ reporter activity
B1 (RNF17 RING domain)	15300
PLRRLQEEKLCKICMDRHIAVVFIPCGHLVTCKQCAEAVDRCPMCSAVIDFKQRVF (BIRC8 RING domain (UniProt Q96P09))	0
B2 (RNF10 RING domain)	0
GSEEEEIPFRCFICRQAFQNPVVTKCRHYFCESCALEHFRATPRCYICDQPTGGIFNPA (RNF113B RING domain (UniProt Q8IZP6))	8680
B3 (TRIM34 RING domain)	11600
B4 (RNF7 RING domain)	0
B5 (TRIM28 RING domain)	2480
B6 (TRIM74 RING domain)	0
B7 (TRIM2 RING domain)	4780

Set 3 — method: EMSA with sequencing; form: double-stranded DNA, one strand shown; sample: in vitro; tested at: 10 and 20 nM; relative to: negative control set to 0; reading: higher = stronger binding
Target: Hepatocyte nuclear factor 3-alpha (Foxa1, Mus musculus, UniProt P35582, residues 1-468, full length assumed)
UniProt P35582, sequence (whole entry, looked up): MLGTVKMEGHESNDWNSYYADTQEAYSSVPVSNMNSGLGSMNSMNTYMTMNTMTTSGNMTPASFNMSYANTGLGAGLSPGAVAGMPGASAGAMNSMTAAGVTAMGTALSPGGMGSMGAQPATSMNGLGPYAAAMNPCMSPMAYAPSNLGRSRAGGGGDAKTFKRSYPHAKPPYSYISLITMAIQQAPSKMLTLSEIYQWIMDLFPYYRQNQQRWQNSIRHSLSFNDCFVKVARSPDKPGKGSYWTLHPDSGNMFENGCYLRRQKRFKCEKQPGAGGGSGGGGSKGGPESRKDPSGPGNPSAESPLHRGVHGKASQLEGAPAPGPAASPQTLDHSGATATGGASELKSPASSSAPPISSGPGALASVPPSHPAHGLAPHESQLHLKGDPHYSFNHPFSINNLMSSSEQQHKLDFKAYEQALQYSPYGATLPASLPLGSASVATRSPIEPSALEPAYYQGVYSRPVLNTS
Notes: whole designed probe, mean of two concentrations, ends assumed
Constant ends, left off below: GTGAGCGGTGCCCATTGATGGGGAAC … TTTCACTGGGATCGTGGGGAC
Sequence	normalised bound fraction [ratio]
CACACTCACCAAGTGCTTTTTCATCATGGCATCAAGGATCATGGAAACGTTACACCAGCCACTCTTTTCTGGAGCAAAGATGACCCATGTCTGGGCAATTTAGAAAGGTTTCGTATGAGTATGTCTGTTCAAATAAATCCTAACTTTCTCACTGGGAAGGAATGACTAGTTCCCACGACTCACAGGACACCAC	0.125
ACAACATCAGGTCATTATTTATCCACTTGTCCTTTTTTTTTTTATCATTCCTTTGAACTGCCTGCATTTGCTTATGGTCATATTTCTCAGTCTGTAAACAGCCCGAGTAGCTGTTCTATTTCTCTAAATAGAGTCTTAGGTCATTTTATTATCCAGAATTGTAAGTCATCAGAATGCACCCATCTGTTGTCCT	0.133
AGGTGAATTGGCTGCTTCCATCCTGGCTTGGAACTTCAGACATAGAAGCCTTGGGACTTTCTCAGGACTTTCTCCAGATCTGTCACATGCTCAGCAAACAAGCATCTCTGTGGATCCTGACTCATGCGCCAGGGATGTTGGTGAAACTGTGTGTTGGTCTAGGTACCTAGCCCATGCTAGGTGCTCATCGAAT	0.104
CAGCCTGCCCTTTTTCTGAAATATTAGTAATTTTCTTTTTCTTTTTCCTTTTTTTTTTTTTTTTTGGACAATTAAGGGAGACTTGTCCAACTATGTAATCTCAGAAAGCACTCAAGCAACAATGCCCTCGTAATTAGCAGCGGGCAGGCCGGCGTCTGGGCTGGCCCGTCAGGCGCGGCGTCAGCTGAAAGGG	-0.0596
TAAAGAATTTCTCAGTATAATTACCTCCAGCCAGGTTGCTTTTTTTAGCTCAAAAGAAAGATAAAAGGCGGAGTCCTGTAAATAAAGGGAATGTAATCTTGGAGACTGAACCAAAGGCAAGTTACGGGGAGATAAGAATACCTGAAGAGAATTCGATTCAGCTTGATGGTTTTACAGAAGCATATGAAAGTGG	0.00958

Set 4 — method: aptamer microarray, sandwich; form: DNA with 2'F-ANA; sample: in vitro; tested at: 200 nM; together with: Cy3 exosite-II aptamer, 400 nM; reading: higher = stronger binding; sequence: GGTTGGTGTGGTTGG
Target: Prothrombin, mature alpha-thrombin (F2, Homo sapiens, UniProt P00734)
Notes: whole 15-mer aptamer, many near background
Modification	mean fluorescence intensity [a.u.]
2'F-ANA at 1 3 8 9 10 12	137
2'F-ANA at 3 4 6 7 9 10 12 13 14	186
2'F-ANA at 3 4 5 6 9 11 13	62.4
2'F-ANA at 1 3 4 5 6 8 9 13	69.6
2'F-ANA at 2 4 6 7 8 9 12	652
2'F-ANA at 4 5 6 11 12 14 15	60.2
2'F-ANA at 2 4 5 6 8 9 10 11 12	56.7
2'F-ANA at 3 5 6 7 10 13 14 15	131
2'F-ANA at 1 2 3 6 7 8 9 12 13 14	85.1
2'F-ANA at 1 3 4 5 6 7 8 14	59.8
2'F-ANA at 2 3 8 10 13 14 15	282
2'F-ANA at 3 6 8 9 11 14 15	482
2'F-ANA at 2 3 4 5 6 9 12 13 14 15	51.1
2'F-ANA at 1 2 3 5 7 11 12 13	75.3

Repeated from above (set 2):
Sequence	lacZ reporter activity
B1 (RNF17 RING domain)	15300
B4 (RNF7 RING domain)	0
B3 (TRIM34 RING domain)	11600
B2 (RNF10 RING domain)	0
GSEEEEIPFRCFICRQAFQNPVVTKCRHYFCESCALEHFRATPRCYICDQPTGGIFNPA (RNF113B RING domain (UniProt Q8IZP6))	8680
